Published values pooled from the literature.
Protocols differ between the studies behind these lines. ± gives the spread as reported.
Chain of UniProt Q9UHD2 (whole entry, looked up): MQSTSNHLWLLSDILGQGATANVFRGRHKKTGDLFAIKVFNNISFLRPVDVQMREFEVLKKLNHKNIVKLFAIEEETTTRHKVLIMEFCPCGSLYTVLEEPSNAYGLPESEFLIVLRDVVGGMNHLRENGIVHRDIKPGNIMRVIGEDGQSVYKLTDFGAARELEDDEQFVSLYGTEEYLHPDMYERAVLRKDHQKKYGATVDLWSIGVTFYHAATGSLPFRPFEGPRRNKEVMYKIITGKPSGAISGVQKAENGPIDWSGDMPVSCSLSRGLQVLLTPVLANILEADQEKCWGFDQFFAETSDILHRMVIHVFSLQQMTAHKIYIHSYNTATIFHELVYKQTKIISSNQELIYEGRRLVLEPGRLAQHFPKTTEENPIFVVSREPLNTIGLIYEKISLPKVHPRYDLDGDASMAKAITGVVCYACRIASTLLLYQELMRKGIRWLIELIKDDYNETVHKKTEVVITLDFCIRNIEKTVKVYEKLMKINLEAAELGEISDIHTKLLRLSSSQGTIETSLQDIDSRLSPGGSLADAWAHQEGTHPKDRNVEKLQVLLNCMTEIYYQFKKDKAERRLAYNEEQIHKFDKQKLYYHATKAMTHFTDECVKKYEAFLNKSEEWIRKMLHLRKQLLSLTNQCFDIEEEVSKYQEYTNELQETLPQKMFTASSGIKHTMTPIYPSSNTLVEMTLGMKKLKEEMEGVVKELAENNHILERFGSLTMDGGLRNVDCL
Chain of UniProt Q969G3 (whole entry, looked up): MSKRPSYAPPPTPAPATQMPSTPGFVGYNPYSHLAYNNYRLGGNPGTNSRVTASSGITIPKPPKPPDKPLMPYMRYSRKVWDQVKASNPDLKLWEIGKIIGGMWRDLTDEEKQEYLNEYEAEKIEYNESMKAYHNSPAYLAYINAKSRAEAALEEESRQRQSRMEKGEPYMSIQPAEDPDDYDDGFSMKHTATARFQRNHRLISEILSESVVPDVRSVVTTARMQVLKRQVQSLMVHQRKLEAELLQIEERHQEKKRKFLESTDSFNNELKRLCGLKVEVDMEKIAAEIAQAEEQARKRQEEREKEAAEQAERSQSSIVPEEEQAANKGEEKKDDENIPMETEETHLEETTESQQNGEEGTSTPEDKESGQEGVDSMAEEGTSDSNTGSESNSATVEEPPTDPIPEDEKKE
Chain of UniProt P50406 (whole entry, looked up): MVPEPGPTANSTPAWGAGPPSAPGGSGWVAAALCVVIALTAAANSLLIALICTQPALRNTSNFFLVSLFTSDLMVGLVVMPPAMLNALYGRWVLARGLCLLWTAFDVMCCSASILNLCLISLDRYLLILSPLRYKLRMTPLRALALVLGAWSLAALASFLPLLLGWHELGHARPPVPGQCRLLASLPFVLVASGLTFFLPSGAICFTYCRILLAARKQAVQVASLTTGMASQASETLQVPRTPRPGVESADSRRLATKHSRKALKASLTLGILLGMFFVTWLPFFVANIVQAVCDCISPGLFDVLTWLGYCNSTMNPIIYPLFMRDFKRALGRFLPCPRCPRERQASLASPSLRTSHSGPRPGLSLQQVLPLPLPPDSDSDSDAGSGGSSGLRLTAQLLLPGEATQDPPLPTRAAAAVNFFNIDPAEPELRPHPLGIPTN
Chain of UniProt Q96P65 (whole entry, looked up): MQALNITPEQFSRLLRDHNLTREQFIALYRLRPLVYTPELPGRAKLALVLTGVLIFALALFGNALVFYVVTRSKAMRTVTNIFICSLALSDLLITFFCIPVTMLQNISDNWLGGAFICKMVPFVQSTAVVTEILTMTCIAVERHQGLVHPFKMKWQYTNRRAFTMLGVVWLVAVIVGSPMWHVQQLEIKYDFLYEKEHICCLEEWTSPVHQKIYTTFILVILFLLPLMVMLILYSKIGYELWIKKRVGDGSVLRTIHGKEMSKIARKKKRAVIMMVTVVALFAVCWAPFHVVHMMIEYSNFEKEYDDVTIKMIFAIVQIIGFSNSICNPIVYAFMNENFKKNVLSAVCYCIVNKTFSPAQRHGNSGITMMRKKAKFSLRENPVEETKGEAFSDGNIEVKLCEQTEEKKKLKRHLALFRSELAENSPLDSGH

`OC(CCN1CC=C(c2ccc(F)cc2)CC1)c1ccc(F)c2ccccc12` (stereo not drawn) gave a survival of 115% (Salmonella typhimurium; SOS/umu test; TA1535/pSK1002; 0.016 mg/mL, 4 h, with S9, lower range).
`Cc1cc(C(=O)NC(C)(C)COc2cccc3c2C(N)=NS(=O)(=O)N3)cc(C)n1` gave a revertant ratio of 1.1 (Escherichia coli; Ames test, initial; WP2 uvrA; 500 µg/plate; relative to: solvent control).
`CN1CCCN(S(=O)(=O)c2ccc(-c3ccc4nncc(Nc5ccc(OCc6cccc(F)c6)c(Cl)c5)c4c3)cc2)CC1` gave a selectivity ratio of 12 (Trypanosoma cruzi; NIH 3T3, 2% FBS medium; 96 h; relative to: NIH 3T3 TC50 over T. cruzi EC50).
`CO[C@H]1C[C@@H]2CC[C@@H](C)[C@@](O)(O2)C(=O)C(=O)N2CCCC[C@H]2C(=O)O[C@H]([C@H](C)C[C@@H]2CC[C@@H](OC(=O)NCCOCCOCCOCCOCCOCCOCCOCCOCCC(=O)N3CCc4cc(Cn5nc(-c6ccc7oc(N)nc7c6)c6c(N)ncnc65)ccc4C3)[C@H](OC)C2)C[C@@H](O)[C@H](C)/C=C(\C)[C@@H](O)[C@@H](OC)C(=O)[C@H](C)C[C@H](C)/C=C/C=C/C=C/1C`: “maculopapular rash TEAE incidence” 19.3% (dose-escalation trial; patients with advanced solid tumours; intravenous, all doses weekly, any grade).
Under “subjects with drug-related TEAE”, `C[C@]1(CO)Cc2ncn(-c3ccc(C#N)c(Cl)c3)c2C(=O)O1` is recorded as 0% (measured: abnormal skin odour; human; 20 mg multiple doses, fasted).
The hatching rate of `[Cl-].[Cl-].[Pt+2].[Ru+2].c1ccc(-c2nc3ccccc3nc2-c2ccccn2)nc1.c1cnc2c(c1)ccc1cccnc12.c1cnc2c(c1)ccc1cccnc12` is reported as 3.33 ± 1.1% (Danio rerio; embryos; 90 µM, 72 h).
With `Fc1ccc(C2=CCNCC2)cc1` the survival was 104% (Salmonella typhimurium; SOS/umu test; TA1535/pSK1002; 0.001 mg/mL, 4 h, without S9 activation).
`COc1cccc(-c2n[nH]c(SCc3ccccn3)n2)c1OC`: “revertant colonies per plate” 41 (Escherichia coli; Ames test, plate incorporation; WP2 uvrA; 0.50 mg/plate, with rat liver S9).
The IC50 of `COc1cc(Nc2ncc(F)c(Nc3ccc4c(n3)NC(=O)C(C)(C)O4)n2)cc(OC)c1OC` is reported as greater than 10 µM (Pyroglutamylated RF-amide peptide receptor (QRFPR, Homo sapiens, UniProt Q96P65)).
For `CC1(F)CN(C(=O)Cn2c(=O)c(C(=O)NCc3ccc(Cl)cc3)cc3nc(N4CCNC4=O)cnc32)C1`, the selectivity ratio was greater than 253 (human cytomegalovirus; MRC-5, Davis; relative to: CC50 over EC50).
`CC[C@H](C)[C@@H]1NC(=O)[C@@H]2CCCN2C(=O)[C@H](CC(C)C)NC(=O)[C@H](CC(C)C)NC(=O)CNC(=O)[C@@H](NC(=O)[C@@H](NC(=O)[C@H](CC(=O)O)NC(=O)CNC(=O)[C@@H](NC(=O)[C@H](C)NC(=O)CNC(=O)[C@H](CCCCN)NC(=O)[C@H](CC(C)C)NC(=O)[C@H](CC(C)C)NC(=O)[C@H](CCCCN)NC(=O)CNC(=O)[C@@H](NC(=O)[C@@H](N)CC(C)C)C(C)C)C(C)C)C(C)C)CSSC[C@@H](C(=O)O)NC1=O`: “log2 fold change” 0.4 (RNA-seq, measured: Casp7; mouse, traumatic brain injury model, frontal cortex and hippocampus; dose not given; relative to: TBI alone).
The selectivity ratio of `CN1CCCN(S(=O)(=O)c2ccc(-c3ccc4ncc(C#N)c(Nc5ccc(OCc6cccc(F)c6)c(Cl)c5)c4c3)cc2)CC1` is reported as 262 (Trypanosoma cruzi; NIH 3T3, 2% FBS medium; 96 h; relative to: NIH 3T3 TC50 over T. cruzi EC50).
Under “revertant fold increase”, `CC(=O)N1CCC(C(=O)N2CCN3C(=O)c4cc(-c5ccccc5)ccc4NC(=O)C3C2)CC1` (stereo not drawn) is recorded as 0.9 (Escherichia coli; WP2 uvrA; 1581 µg/plate, with rat liver S9; relative to: vehicle).
`O=[N+]([O-])c1ccc(N2CCN(CCC(O)c3ccc(F)cc3)CC2)c(C(F)(F)F)c1` (stereo not drawn) has an induction factor of 1.1 (Salmonella typhimurium; genotoxicity, SOS/umu test; TA1535/pSK1002; 0.004 mg/mL, 4 h, with S9, lower range).
`COc1cc2c(Oc3ccc4[nH]c(C)cc4c3F)ccnc2cc1OCC1(N)CC1` — result for “grade 3 QTc prolongation”: 0% (paediatric refractory sarcoma patients; 10 mg).
The induction factor of `O=[N+]([O-])c1ccc(N2CCC(NCCC(O)c3ccc(F)c4ccccc34)CC2)c(C(F)(F)F)c1` (stereo not drawn) is reported as 1.06 (Salmonella typhimurium; genotoxicity, SOS/umu test; TA1535/pSK1002; 0.004 mg/mL, 4 h, without S9, full range).
`CN1CCCN(S(=O)(=O)c2ccc(-c3ccc4c(Nc5ccc(OCc6cccc(F)c6)c(Cl)c5)nncc4c3)cc2)CC1` gave a selectivity ratio of 34 (Trypanosoma cruzi; NIH 3T3, 2% FBS medium; 96 h; relative to: NIH 3T3 TC50 over T. cruzi EC50).
`CC[C@H](C)[C@H](NC(=O)[C@H](Cc1ccccc1)NC(=O)[C@H](CCC(=O)O)NC(=O)[C@H](CCCNC(=N)N)NC(=O)[C@H](C)NC(=O)[C@H](C)NC(=O)[C@H](CCC(N)=O)NC(=O)[C@H](CCC(=O)O)NC(=O)[C@H](CCC(=O)O)NC(=O)[C@H](CC(C)C)NC(=O)[C@H](Cc1ccc(O)cc1)NC(=O)[C@H](CO)NC(=O)[C@H](CO)NC(=O)[C@@H](NC(=O)[C@H](CC(=O)O)NC(=O)[C@H](CO)NC(=O)[C@@H](NC(=O)[C@H](Cc1ccccc1)NC(=O)[C@@H](NC(=O)CNC(=O)[C@H](CCC(=O)O)NC(=O)[C@H](C)NC(=O)CCc1c[nH]cn1)[C@@H](C)O)[C@@H](C)O)C(C)C)C(=O)N[C@@H](C)C(=O)N[C@@H](Cc1c[nH]c2ccccc12)C(=O)N[C@@H](CC(C)C)C(=O)N[C@H](C(=O)N[C@@H](CCCNC(=N)N)C(=O)NCC(=O)N[C@@H](CCCNC(=N)N)C(=O)N[C@@H](CCCCNC(=O)COCCOCCNC(=O)COCCOCCNC(=O)CC[C@H](NC(=O)CCCCCCCCCCCCCCCCC(=O)O)C(=O)O)C(=O)NCC(=O)NCC(=O)N[C@@H](CO)C(=O)N[C@@H](CCCCNc1c(NCCCCCN(O)C(=O)CCC(=O)NCCCCCN(O)C(=O)CCC(=O)NCCCCCN(O)C(C)=O)c(=O)c1=O)C(=O)O)C(C)C` [zirconium-89 labelled] has a tissue uptake of 0.04 %ID/g (gamma counting; rat, stomach-duodenum content; subcutaneous, 3 nmol/kg, 168 h).
The cell viability of `COc1ccc2c(c1OC)C(=O)c1c(cc(C)c(O)c1OC)C2=O` is reported as 75 ± 10.6% (HepaRG co-cultured with HK-2; MTT; 133.33 µM, 48 h; relative to: untreated control).
`C[C@H]1CN(c2n[nH]c3nc(N[C@H]4CC[C@H](NS(=O)(=O)CCC(F)(F)F)CC4)ncc23)CCO1` gave a remaining binding of 1.33 (SWI/SNF-related matrix-associated actin-dependent regulator of chromatin subfamily E member 1 (Homo sapiens, UniProt Q969G3); Kinobeads competition, measured: SMARCE1; 0.16 µM, unit not given; relative to: vehicle).
With `NCC(=O)O` the half-life was 20.3 h (Bacillus subtilis; NCIB3610).
With `Cn1c(Cn2ccc(C(F)(F)F)c(Oc3cc(Cl)cc(C#N)c3)c2=O)n[nH]c1=O` the selectivity index was greater than 1540 (HIV-1; MTT; MT4, RT L100I/V179D/Y181C mutant; relative to: CC50 over EC50).
`COc1ccc(N2C(=O)N(c3c(C)cccc3Cl)Cc3cnc(Nc4ccc(C5CCN(C)CC5)cc4OC)nc32)nc1` has an inhibition of 6% (Serine/threonine-protein kinase TBK1 (TBK1, Homo sapiens, UniProt Q9UHD2); kinase activity; 0.5 µM).
`N#C[C@@]1(n2ccc(N)nc2=O)O[C@H](CO)[C@@H](O)[C@H]1O` gave a viability of 105% (Salmonella typhimurium; TA1535; 25 µM, without S9).
`CCCCc1ccc(CNc2nc(N(C)C)nc(N(C)C)c2/N=N/c2ccc(Cl)cc2)cc1` gave a mortality of 83.3 ± 10% (Plutella xylostella; leaf dipping; 50 mg/L, 96 h).
`Cc1ccnc2c1NC(=O)c1cccnc1N2C1CC1` gave a selectivity index of greater than 106 (HIV-1; MT4, IIIB wild type; relative to: CC50 over EC50).
`[Cl-].[Cl-].[Pt+2].[Ru+2].c1ccc(-c2nccnc2-c2ccccn2)nc1.c1cnc2c(c1)ccc1cccnc12.c1cnc2c(c1)ccc1cccnc12` gave a survival rate of 90 ± 2.4% (Danio rerio; embryos; 15 µM, 24 h).
With `Cc1cc(C#N)cc(C)c1Oc1nc(Nc2ccc(C#N)cc2)nc(N)c1Br` the selectivity index was greater than 6 (HIV-1; MTT; MT4, RT A98G/V106I/V179D/Y181C/G333E mutant; relative to: CC50 over EC50).
The inhibition of `CN1CCN(c2cc(-c3ccncc3)c(-c3ccc4ccccc4c3)nn2)CC1` is reported as 14.3% (5-hydroxytryptamine receptor 6 (HTR6, Homo sapiens, UniProt P50406); antagonist, FLIPR; 10 µM).
The selectivity ratio of `CN1CCCN(S(=O)(=O)c2ccc(-c3ccc4c(Nc5ccc(OCc6cccc(F)c6)c(Cl)c5)ccnc4c3)cc2)CC1` is reported as 15 (Trypanosoma cruzi; NIH 3T3, 2% FBS medium; 96 h; relative to: NIH 3T3 TC50 over T. cruzi EC50).
For `[Cl-].[Cl-].[Pt+2].[Ru+2].c1ccc(-c2nc3cc4ccccc4cc3nc2-c2ccccn2)nc1.c1cnc2c(c1)ccc1cccnc12.c1cnc2c(c1)ccc1cccnc12`, the survival rate was 60 ± 2.8% (Danio rerio; embryos; 90 µM, 72 h).
For `O=C1c2ccccc2C(=O)c2ccccc21`, the viability was 38.4 ± 5.48% (HK-2 co-cultured with HepaRG; MTT; 133.33 µM, 48 h; relative to: untreated control).
`COCCN(CCOC)N=O` — result for “revertant colonies per plate”: 17 ± 4 (Salmonella typhimurium; mutagenicity, Ames plate incorporation; TA1535; 150 µg/plate, 3 d, without S9, methanol).
